Experimental data from different studies.
Protocols differ between the studies behind these lines. Numbers after ± are the reported error.

SMILES | target | test | system | conditions | how to read | measurement | value
Cn1cncn1.[Ru+2].c1cc(-c2ccc3ccccc3n2)nc(-c2ccc3ccccc3n2)c1.c1ccc2cc3nc4c5cccnc5c5ncccc5c4nc3cc2c1 | Cathepsin B (Ctsb, Mus musculus, UniProt P10605) | enzyme activity | 4T1, cell lysate | 1 µM, 4 h, dark, then 1 h, added: Z-Arg-Arg-AMC | reference: vehicle | remaining activity | 118 ± 4%
NC(=O)[C@@H]1CCCNC(=O)[C@H](Cc2ccc([N+](=O)[O-])cc2)NC(=O)[C@H](Cc2ccco2)NC(=O)[C@H](CC2CC2)NC(=O)/C=C/C(=O)N1 | SRC (Gallus gallus, UniProt P00523, C277Q) | enzyme activity, inhibitor | – | – | reference: C277Q mutant over wild type | IC50 ratio | 13 fold
COc1cc(C2CC(=O)Nc3nc(N)[nH]c(=O)c32)ccc1O (stereo not shown) | uncharacterized protein (Leishmania donovani, UniProt A0A3Q8IA09) | ITC | – | – | – | ΔG | -8.01 kcal/mol
COc1cc(N2CCN(C(=O)C3CCCN3)CC2)ccc1Nc1ncc(Cl)c(Nc2ccccc2P(C)(C)=O)n1 (stereo not shown) | ALK tyrosine kinase receptor/Echinoderm microtubule-associated protein-like 4 (Homo sapiens, UniProt Q9HC35+Q9UM73) | degrader, immunoblot | Ba/F3 EML4-ALK | 1 µM | – | onset of degradation | 0.5 h
C[C@@H](O)[C@H](NC(=O)OP(=O)(O)OC[C@H]1O[C@@H](n2cnc3c(N)ncnc32)[C@H](O)[C@@H]1O)C(=O)O | tsaD, with TsaB and TsaE (Escherichia coli, UniProt P05852) | substrate | – | – | – | kcat | 0.00517 ± 0.000333 s⁻¹
CC(C)[C@H](NC(=O)[C@H](CCCNC(=N)N)NC(=O)[C@@H](NC(=O)[C@H](CCC(N)=O)NC(=O)[C@H](CCC(N)=O)NC(=O)[C@@H](NC(=O)[C@H](Cc1c[nH]c2ccc(O)cc12)NC(=O)[C@@H]1CCCN1C(=O)[C@@H]1CCCN1C(=O)[C@H](Cc1ccccc1)NC(=O)[C@H](CO)NC(=O)CNC(=O)[C@H](CCCNC(=N)N)NC(=O)[C@H](CCCNC(=N)N)NC(=O)[C@H](CCCNC(=N)N)NC(=O)[C@H](CCCNC(=N)N)NC(=O)[C@H](CCCNC(=N)N)NC(=O)[C@@H](N)CCCNC(=N)N)C(C)C)[C@@H](C)O)C(=O)O | Disks large homolog 4, PDZ3 domain (Homo sapiens, UniProt P78352) | binding, surface plasmon resonance | – | pH 7.5, 25 °C | – | kon | 24000 M⁻¹ s⁻¹
COc1c(Cl)c(/C=C(\C)C(=O)O)c(OC)c2ccccc12 | HIF1α | – | NF90-8 and Pa03C | concentration not given, 24 h, 1% O2 | – | reporter activity | no effect
CNc1ccccc1C(=O)O[C@H]1C[C@H](n2cnc3c(N)ncnc32)O[C@@H]1COP(=O)(O)OP(=O)(O)O | Unconventional myosin-Va (Gallus gallus, UniProt Q02440, D297C/G292C/I296C/S293C/V295G) | stopped-flow FRET | – | 15 °C, added: MgCl2 2 mM | – | pocket reverse rate constant | 2.22 ± 0.28 s⁻¹
CC(C)(C)CCN1C[C@@H]2[C@@H](CNC(=O)c3cc(Cl)cc(Cl)c3)[C@@H]2C1.Cl | Voltage-dependent L-type calcium channel subunit alpha-1F (Homo sapiens, UniProt O60840) | calcium current, whole-cell patch clamp | HEK-293T cells | 5 µM, holding potential -90 mV, added: β2 and α2δ subunits | – | activation slope factor k | 8.36 ± 0.28 mV
CC(C)[C@H](NC(=O)[C@@H]1CCC(=O)NCCC(=O)NCCCC[C@H](NC(=O)[C@H](CCCCN)NC(=O)[C@H](Cc2ccc(O)cc2)NC(=O)[C@H](CC(N)=O)NC(=O)[C@H](CCCCN)NC(=O)[C@@H](N)CS)C(=O)N[C@@H]([C@@H](C)O)C(=O)N1)C(=O)O | Disks large homolog 4 (Homo sapiens, UniProt P78352) | binding, SPR | – | pH 7.5 | – | kon | 76000 M⁻¹ s⁻¹

Repeated from above:
SMILES | target | test | system | conditions | how to read | measurement | value
CC(C)[C@H](NC(=O)[C@H](CCCNC(=N)N)NC(=O)[C@@H](NC(=O)[C@H](CCC(N)=O)NC(=O)[C@H](CCC(N)=O)NC(=O)[C@@H](NC(=O)[C@H](Cc1c[nH]c2ccc(O)cc12)NC(=O)[C@@H]1CCCN1C(=O)[C@@H]1CCCN1C(=O)[C@H](Cc1ccccc1)NC(=O)[C@H](CO)NC(=O)CNC(=O)[C@H](CCCNC(=N)N)NC(=O)[C@H](CCCNC(=N)N)NC(=O)[C@H](CCCNC(=N)N)NC(=O)[C@H](CCCNC(=N)N)NC(=O)[C@H](CCCNC(=N)N)NC(=O)[C@@H](N)CCCNC(=N)N)C(C)C)[C@@H](C)O)C(=O)O | Disks large homolog 4, PDZ3 domain (Homo sapiens, UniProt P78352) | binding, surface plasmon resonance | – | pH 7.5, 25 °C | – | kon | 24000 M⁻¹ s⁻¹
